Measurements of several laboratories.
Several values in a cell are separate wells, animals, samples, runs or records. Numbers after ± are the reported error.

Fc1cccc(-n2cc(-c3ccccc3)nc2NCc2ccc(C(F)(F)F)c(F)c2)c1
AUC(0-inf) (CD-1 mouse, male, intestine; intraperitoneal, 25 mg/kg): 173000 ng·h/mL

O=C(NS(=O)(=O)c1cccs1)c1cc2ccccc2n1Cc1ccc(Br)c2ccccc12
AUC(0-inf) (mouse, plasma; oral, 1 mg/kg): 212 ± 29.3 ng·h/mL

C=C(NC(=O)c1csc(-c2nc3c(cc2O)-c2nc(cs2)C(=O)NC(C(C)O)C(=O)NC(=C(C)OC)c2nc(cs2)C(=O)NC2c4nc(cs4)C(=O)NC(COC(=O)c4c5c6c(cccc6n4O)COC(=O)C(OC4CC(C)(O)C(N(C)C)C(C)O4)C2OC5)c2nc-3cs2)n1)C(N)=O (centres unmarked)
AUC(0-inf) (Sprague-Dawley rats, both sexes, plasma; intravenous infusion, 6 mg/kg, day 7, multiple dosing): 1630 ng·h/mL

O=C1C2CC3CC1CC(C(=O)N1CCN(c4ccc([N+](=O)[O-])c5ncccc45)CC1)(C3)C2
AUC(0-inf) (male ICR mouse, plasma; intravenous, 1 mg/kg): 142 ng·h/mL

O=C1CCC(N2Cc3cc(C(=O)O)c(F)cc3C2=O)C(=O)N1 (centres unmarked)
AUC(0-inf) (male CD-1 mouse, plasma; oral, 10 mg/kg of parent drug): 617 ± 298 ng·h/mL

C/C(N)=N/C(=N\S(=O)(=O)c1ccc(C(F)(F)F)cc1)N1C[C@H](c2ccccc2)C(c2ccc(Cl)cc2)=N1
AUC(0-inf) (C57BL/6 mouse, brain; intravenous, 10 mg/kg, observed value): 547 ng·h/mL

O=C1CCC(N2C(=O)c3ccc(N4CCC(C(=O)N5CCC(CCN6CCC(CNC(=O)c7cccc(-c8noc(C(F)(F)F)n8)c7)(c7nc(-c8ccccc8)cs7)CC6)CC5)CC4)cc3C2=O)C(=O)N1 (centres unmarked)
AUC(0-inf) (ICR mouse, plasma; intraperitoneal, 30 mg/kg): 12700 ± 3750 ng·h/mL

O=C(c1ccccc1)N1C(c2ccc(OCC3CCN(CCCF)C3)cc2)c2ccc(O)cc2CC12CC2 (centres unmarked)
AUC(0-inf) (C57BL/6J mouse, plasma; oral, 25 mg/kg): 2480 ng·h/mL and 3480 ng·h/mL

A few entries again:
O=C1C2CC3CC1CC(C(=O)N1CCN(c4ccc([N+](=O)[O-])c5ncccc45)CC1)(C3)C2
AUC(0-inf) (male ICR mouse, plasma; intravenous, 1 mg/kg): 142 ng·h/mL
